{"data": "Published values gathered from unrelated publications", "method": "steady-state kinetics", "B1": "enzyme (Phocaeicola vulgatus, UniProt A6KWY5); chain MKAIQITAPSEMKVVDIEKPVLEPGEVLVKIKYVGFCGSDLNTFLGRNPMVKLPVIPGHEVGAVIEAVGKDVPDSLKPGMSVTVNPYTNCGKCASCRNGRVNACEHNETLGVQRNGAMCEYIALPWSKIIPAHRIPPRDCALIEPMSVGFHAVSRAQVTDIDIVMVIGCGMIGMGAIVRSALRGATVIAVDLDDEKLELAKRIGAHHTINSMTENVHECLTKITEGLGPDVVIEAVGSPATYVMAVNEVGFTGRVVCIGYAKSEVSFQTKYFVQKELDIRGSRNALPTDFRAVIRYMEQGTCPKNELISKVVKPEAAIQAMKEWAAAPGKVFRILVEFD", "B2": "DCXR (Homo sapiens, UniProt Q7Z4W1); chain MELFLAGRRVLVTGAGKGIGRGTVQALHATGARVVAVSRTQADLDSLVRECPGIEPVCVDLGDWEATERALGSVGPVDLLVNNAAVALLQPFLEVTKEAFDRSFEVNLRAVIQVSQIVARGLIARGVPGAIVNVSSQCSQRAVTNHSVYCSTKGALDMLTKVMALELGPHKIRVNAVNPTVVMTSMGQATWSDPHKAKTMLNRIPLGKFAEVEHVVNAILFLLSDRSGMTTGSTLPVEGGFWAC", "B3": "BaiA2 (Clostridium scindens, UniProt P19337); chain MNLVQDKVTIITGGTRGIGFAAAKIFIDNGAKVSIFGETQEEVDTALAQLKELYPEEEVLGFAPDLTSRDAVMAAVGQVAQKYGRLDVMINNAGITSNNVFSRVSEEEFKHIMDINVTGVFNGAWCAYQCMKDAKKGVIINTASVTGIFGSLSGVGYPASKASVIGLTHGLGREIIRKNIRVVGVAPGVVNTDMTNGNPPEIMEGYLKALPMKRMLEPEEIANVYLFLASDLASGITATTVSVDGAYRP", "B4": "TenA_E (Arabidopsis thaliana, UniProt Q9ASY9); chain MEKRGVIDTWIDKHRSIYTAATRHAFVVSIRDGSVDLSSFRTWLGQDYLFVRRFVPFVASVLIRACKDSGESSDMEVVLGGIASLNDEIEWFKREGSKWDVDFSTVVPQRANQEYGRFLEDLMSSEVKYPVIMTAFWAIEAVYQESFAHCLEDGNKTPVELTGACHRWGNDGFKQYCSSVKNIAERCLENASGEVLGEAEDVLVRVLELEVAFWEMSRGGQ", "B5": "protein (Sulfurisphaera tokodaii, UniProt Q96XE7); chain MIILAFDIFGTVLDTSTVIQEFRNKQLEYTWLLTIMGKYVEFEEITKITLRYILKVRGEESKFDEELNKWKNLKAYEDTKYLKEISEIAEVYALSNGSINEVKQHLERNGLLRYFKGIFSAESVKEYKPSPKVYKYFLDSIGAKEAFLVSSNAFDVIGAKNAGMRSIFVNRKNTIVDPIGGKPDVIVNDFKELYEWILRYK", "B6": "PduO F112A (Limosilactobacillus reuteri, UniProt Q50EJ2); chain MKIYTKNGDKGQTRIIGKQILYKNDPRVAAYGEVDELNSWVGYTKSLINSHTQVLSNELEEIQQLLFDCGHDLATPADDERHSFKFKQEQPTVWLEEKIDNYTQVVPAVKKAILPGGTQLASALHVARTITRRAERQIVQLMREEQINQDVLIFINRLSDYFFAAARYANYLEQQPDMLYRNSKDVFR", "B7": "PGDH2 (Oryza sativa, UniProt B7FAD2); chain VTLGAGTDGALWPKPAVLVAEKLSEAGLAVLRGFADVECAYGMSPAELLAKVAQFDALIVRSGTKVTREVLEAGRGRLRVVGRAGVGIDNVDLQAATEAGCLVVNAPTANTVAAAEHGIALLASMARNVSQADAALKAGKWQRTKYVGVSLVGKTLAVMGFGKVGSEVARRAKGLGMHVIAHDPYAPADRARAIGAELVSFDEAIGRADFISLHMPLTPATSKVFNDESFSRMKNGVRIINVARGGVIDEDALVRALDSGKVAQAALDVFTEEPPAKDSKLVLHENVTVTPHLGASTVEAQEGVAIEIAEAVVGALRGELAATAVNAPMVPAEVMSELAPYVSLAEKLGKLAVQLVAGESGGIKGVKVVYTTARGPDDLDTRLLRAMVTKGIVEPVSSTFVNLVNADYTAKQRGLRITEERVSHESPAAEAPLESIQVRLSHVQSKFAGAISDGGDIVLEGRVKYGVPHLTVVGPYEVDVSLEGNLILCRQIDQPGMIGKVGNILGQTNVNISFMSVGRTFRGKQAIMAIGVDEEPDKETLEHIGHIPAIEEFVFLEL", "B8": "protein (Planktothrix agardhii, UniProt F5B6Z0); chain MIVNVIQKDRLKEQKLQFIRNHQQAFDVEPIYPLPLFEDFVTSIEGDCSLEASCKIESDKLIASRFLLFFEDKTQEWQKYLHQSLTFFGLVENRVGVKINYSLLQQFLGSSFDFSKVTVLSAGIDLRNNLAESSLKMHIRIKDYPEKLDKAFALSDGAADGNYLKDFVNLIGFDFYFNGKSEIEIYAEVQEDDFFKPEINNLVWQHFPKTALQPLKASSLFFTGLSKANNNPVLYYHLKNRQDLTNYFKLNDTAQRVHSFYQHQDILPYMWVGTAQKELEKTRIENIRLYYYKSFKMESN", "B9": "protein (Streptomyces coelicolor, UniProt P16544); chain MATQDSEVALVTGATSGIGLEIARRLGKEGLRVFVCARGEEGLRTTLKELREAGVEADGRTCDVRSVPEIEALVAAVVERYGPVDVLVNNAGRPGGGATAELADELWLDVVETNLTGVFRVTKQVLKAGGMLERGTGRIVNIASTGGKQGVVHAAPYSASKHGVVGFTKALGLELARTGITVNAVCPGFVETPMAASVREHYSDIWEVSTEEAFDRITARVPIGRYVQPSEVAEMVAYLIGPGAAAVTAQALNVCGGLGNY", "B10": "LYPLA1 (Homo sapiens, UniProt O75608); chain MCGNNMSTPLPAIVPAARKATAAVIFLHGLGDTGHGWAEAFAGIRSSHIKYICPHAPVRPVTLNMNVAMPSWFDIIGLSPDSQEDESGIKQAAENIKALIDQEVKNGIPSNRIILGGFSQGGALSLYTALTTQQKLAGVTALSCWLPLRASFPQGPIGGANRDISILQCHGDCDPLVPLMFGSLTVEKLKTLVNPANVTFKTYEGMMHSSCQQEMMDVKQFIDKLLPPID", "B11": "protein (Sinorhizobium meliloti, UniProt Q92LZ4); chain MSRPRILVPGKINPRVLERLPEMFETVRIERADAALVTADMRDVSGIAVSGKLPVPLMDAFPSLEIVANFGVGYDGVDVSRAAARGIVVTNTPDVLTEEVADTAIGLLLNTLRLLPQAEQWLRQGRWVREGAFPLSPLSLRGRTVGLFGLGRIGLAIARRLEAFGVSIAYHTRTPREGLGFTYHPTLVGMAEAVDTLIVIVPGTASTLKAVNADVLSALGPKGVLINVGRGSTVDEAALVTALQNGTIAGAGLDVFENEPNVPEALLSFPNVSLLPHVASASVVTRNAMSDLVVDNLKAWFSTGEALTPVAETPFRRRAIQN", "B12": "GTPBP3 E315A (Homo sapiens, UniProt Q969Y2); chain TRRSSGAPAPGSGATIFALSSGQGRCGIAVIRTSGPASGHALRILTAPRDLPLARHASLRLLSDPRSGEPLDRALVLWFPGPQSFTGEDCVEFHVHGGPAVVSGVLQALGSVPGLRPAEAGEFTRRAFANGKLNLTEVEGLADLIHAETEAQRRQALRQLDGELGHLCRGWAETLTKALAHVEAYIDFGEDDNLEEGVLEQADIEVRALQVALGAHLRDARRGQRLRSGVHVVVTGPPNAGKSSLVNLLSRKPVSIVSPEPGTTRDVLETPVDLAGFPVLLSDTAGLREGVGPVAQEGVRRARERLEQADLILAMLDASDLASPSSCNFLATVVASVGAQSPSDSSQRLLLVLNKSDLLSPEGPGPGPDLPPHLLLSCLTGEGLDGLLEALRKELAAVCGDPSTDPPLLTRARHQHHLQGCLDALGHYKQSKDLALAAEALRVARGHLTRLTGGGGTEEILDIIFQDFCVGK", "note": "Numbers after ± are the reported error.", "UniProt Q47898, sequence (whole entry, looked up)": "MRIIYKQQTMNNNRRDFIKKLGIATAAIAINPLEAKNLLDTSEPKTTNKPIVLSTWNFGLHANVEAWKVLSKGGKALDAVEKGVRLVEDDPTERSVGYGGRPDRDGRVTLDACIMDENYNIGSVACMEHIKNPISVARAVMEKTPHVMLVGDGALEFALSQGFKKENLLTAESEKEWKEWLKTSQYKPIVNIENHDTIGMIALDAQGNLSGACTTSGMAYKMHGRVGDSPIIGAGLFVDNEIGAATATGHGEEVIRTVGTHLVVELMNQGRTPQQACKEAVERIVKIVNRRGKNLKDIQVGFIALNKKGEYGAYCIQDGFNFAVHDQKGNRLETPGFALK", "UniProt Q6PHW0, sequence (whole entry, looked up)": "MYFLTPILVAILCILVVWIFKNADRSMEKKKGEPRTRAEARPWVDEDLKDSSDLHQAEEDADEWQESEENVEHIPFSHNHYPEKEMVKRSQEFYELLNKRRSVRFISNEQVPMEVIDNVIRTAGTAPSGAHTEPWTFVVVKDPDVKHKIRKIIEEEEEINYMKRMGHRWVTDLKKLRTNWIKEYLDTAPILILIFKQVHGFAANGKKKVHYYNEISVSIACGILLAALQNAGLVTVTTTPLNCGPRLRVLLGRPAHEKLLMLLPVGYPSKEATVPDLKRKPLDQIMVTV"}
{"Molecule": "IYD (Homo sapiens, UniProt Q6PHW0)", "substrate": "N#Cc1cc(C[C@H](N)C(=O)O)cc(I)c1O", "pH": "pH 7.4", "temperature": "25 °C", "added": "sodium dithionite 0.5%", "kcat/Km": "700 ± 200 M⁻¹ s⁻¹"}
{"Molecule": "alanine aminopeptidase (Neisseria meningitidis, UniProt Q9JYV4)", "substrate": "NC(=O)Cc1cc(=O)oc2cc(NC(=O)[C@@H](N)CCCCOCc3ccccc3)ccc12", "pH": "pH 7.5", "temperature": "37 °C", "kcat/Km": "54000 ± 1000 M⁻¹ s⁻¹"}
{"Molecule": "B1 (enzyme)", "substrate": "O=C(O)[C@@H](O)[C@H](O)[C@H](O)C(=O)CO", "pH": "pH 7", "temperature": "30 °C", "kcat/Km": "160000 ± 20000 M⁻¹ s⁻¹"}
{"Molecule": "B2 (DCXR)", "substrate": "CC(=O)C(C)=O", "pH": "pH 7", "added": "NADPH 200 µM", "kcat/Km": "33900 M⁻¹ s⁻¹"}
{"Molecule": "B3 (BaiA2)", "substrate": "C[C@H](CCC(=O)SCCNC(=O)CCNC(=O)[C@H](O)C(C)(C)COP(=O)(O)OP(=O)(O)OC[C@H]1O[C@@H](n2cnc3c(N)ncnc32)[C@H](O)[C@@H]1OP(=O)(O)O)[C@H]1CC[C@H]2[C@@H]3CC[C@@H]4CC(=O)CC[C@]4(C)[C@H]3C[C@H](O)[C@]12C", "pH": "pH 8.7", "temperature": "37 °C", "added": "NADH", "kcat/Km": "102000 M⁻¹ s⁻¹"}
{"Molecule": "B4 (TenA_E)", "substrate": "Cc1ncc(CNC=O)c(N)n1", "pH": "pH 7.5", "temperature": "30 °C", "notes": "formylamino-HMP amidohydrolase activity", "added": "450 mM glycine betaine", "kcat/Km": "40.9 M⁻¹ s⁻¹"}
{"Molecule": "B5 (protein)", "substrate": "C[C@H](Cl)C(=O)O", "pH": "pH 9.5", "temperature": "70 °C", "kcat/Km": "1.7 ± 0.228 M⁻¹ s⁻¹"}
{"Molecule": "B6 (PduO F112A)", "substrate": "Nc1ncnc2c1ncn2[C@@H]1O[C@H](COP(=O)(O)OP(=O)(O)OP(=O)(O)O)[C@@H](O)[C@H]1O", "pH": "pH 8", "temperature": "37 °C", "notes": "anoxic", "added": "cob(I)alamin", "kcat/Km": "170 ± 40 M⁻¹ s⁻¹"}
{"Molecule": "B7 (PGDH2)", "substrate": "O=C(O)[C@H](O)COP(=O)(O)O", "pH": "pH 9", "temperature": "25 °C", "notes": "NaCl 0.1 M, apparent", "added": "NAD+", "kcat/Km": "25300 ± 1100 M⁻¹ s⁻¹"}
{"Molecule": "enzyme (Elizabethkingia miricola, UniProt Q47898)", "substrate": "CC(=O)N[C@@H]1[C@@H](O)[C@H](O)[C@@H](CO)O[C@H]1NC(=O)C[C@H](N)C(=O)O", "pH": "pH 7.5", "temperature": "37 °C", "kcat/Km": "160000 M⁻¹ s⁻¹"}
{"Molecule": "B8 (protein)", "substrate": "CC(C)=CCOP(=O)(O)OP(=O)(O)O", "added": "tri-Tyr peptide acceptor", "kcat/Km": "450 M⁻¹ s⁻¹"}
{"Molecule": "B9 (protein)", "substrate": "O[C@@H]1CCCc2ccccc21", "pH": "pH 7.4", "notes": "phosphate 400 mM, NADPH 250 µM printed", "added": "NADP+, reverse reaction", "kcat/Km": "10 ± 1 M⁻¹ s⁻¹"}
{"Molecule": "B10 (LYPLA1)", "substrate": "CN(C)c1ccc(/N=N/c2ccc(C(=O)NCCCn3cc(CCCCCCCCCCCCCCCC(=O)SC[C@H](NC(=O)c4cc5ccc(O)cc5oc4=O)C(=O)N4CCOCC4)nn3)cc2)cc1", "pH": "pH 7.4", "temperature": "37 °C", "kcat/Km": "3200 M⁻¹ s⁻¹"}
{"Molecule": "B11 (protein)", "substrate": "O=C(O)C(=O)CO", "pH": "pH 7.5", "temperature": "25 °C", "notes": "NaCl 150 mM", "added": "NADPH 0.4 mM", "kcat/Km": "9310 ± 380 M⁻¹ s⁻¹"}
{"Molecule": "B12 (GTPBP3 E315A)", "substrate": "Nc1nc2c(ncn2[C@@H]2O[C@H](COP(=O)(O)OP(=O)(O)OP(=O)(O)O)[C@@H](O)[C@H]2O)c(=O)[nH]1", "pH": "pH 8", "temperature": "37 °C", "notes": "KCl 300 mM", "kcat/Km": "93 M⁻¹ s⁻¹"}
{"Molecule": "enzyme (Vitis vinifera, UniProt F6H697)", "substrate": "O=C(O)Cc1cccc2ccccc12", "pH": "pH 8.6", "temperature": "25 °C", "kcat/Km": "454 M⁻¹ s⁻¹"}
{"note": "Some of these lines once more:"}
{"Molecule": "B10 (LYPLA1)", "substrate": "CN(C)c1ccc(/N=N/c2ccc(C(=O)NCCCn3cc(CCCCCCCCCCCCCCCC(=O)SC[C@H](NC(=O)c4cc5ccc(O)cc5oc4=O)C(=O)N4CCOCC4)nn3)cc2)cc1", "pH": "pH 7.4", "temperature": "37 °C", "kcat/Km": "3200 M⁻¹ s⁻¹"}
{"Molecule": "IYD (Homo sapiens, UniProt Q6PHW0)", "substrate": "N#Cc1cc(C[C@H](N)C(=O)O)cc(I)c1O", "pH": "pH 7.4", "temperature": "25 °C", "added": "sodium dithionite 0.5%", "kcat/Km": "700 ± 200 M⁻¹ s⁻¹"}
